Assay results pooled from the literature.
Lines come from different studies, so protocols differ. Numbers after ± are the reported error.

SMILES	test	system	setting	terminal half-life [min]
CN1CCN(c2cccc3c2CCN(C(=O)/C=C/c2c(-n4cnnn4)ccc(Cl)c2F)[C@@H]3C(=O)Nc2ccc(C(=O)O)cc2)C(=O)C1	–	human	intravenous infusion, 1.5 to 25 mg/h, 2 h infusion	122 to 296
CC(C)C[C@H](NC(=O)CNC(=O)c1cc(Cl)ccc1Cl)B(O)O	–	human, plasma	intravenous, 0.5 mg/m^2, day 15	17500
COc1cccc(OCCCN)c1-c1cc(Nc2cnc(C#N)cn2)n[nH]1	noncompartmental analysis	human, plasma	IV infusion, 80 mg/m^2 over 1 h, cycle 1 day 1, geometric mean	960
CC[C@H](C)[C@H](NC(=O)[C@H](CC(C)C)NC(=O)[C@H](Cc1c[nH]c2ccccc12)NC(=O)[C@H](C)NC(=O)[C@@H](NC(=O)[C@H](Cc1ccccc1)NC(=O)[C@H](CC(=O)O)NC(=O)[C@H](CCCNC(=N)N)NC(=O)[C@H](C)NC(=O)[C@H](C)NC(=O)[C@H](CC(C)C)NC(=O)[C@H](C)NC(=O)[C@H](CC(=O)O)NC(=O)[C@H](CC(C)C)NC(=O)[C@@H](NC(=O)[C@@H](NC(=O)[C@H](C)NC(=O)[C@H](CC(C)C)NC(=O)[C@H](CCC(=O)O)NC(=O)[C@H](CO)NC(=O)[C@H](CO)NC(=O)[C@H](Cc1ccccc1)NC(=O)[C@@H](NC(=O)CNC(=O)[C@H](CCC(=O)O)NC(=O)CNC(=O)[C@@H](N)Cc1cnc[nH]1)[C@@H](C)O)[C@@H](C)O)[C@@H](C)CC)[C@@H](C)CC)C(=O)N[C@@H](C)C(=O)N[C@H](C(=O)N[C@@H](CCCCN)C(=O)N[C@H](C(=O)N[C@H](C(=O)N[C@@H](CC(=O)O)C(=O)N[C@@H](CCCCN)C(=O)N[C@@H](CCCCN)C(=O)N[C@@H](CCCCN)C(=O)N[C@@H](CCCCN)C(=O)N[C@@H](CCCCN)C(=O)N[C@@H](CCCCN)C(N)=O)[C@@H](C)O)[C@@H](C)CC)[C@@H](C)O	–	healthy human subjects, plasma	subcutaneous, 5 mg once weekly, day 36 after 6 doses, steady state, mean	228
C=CC(=O)Nc1cc(Nc2ncc(C(=O)OC(C)C)c(-c3cn(C)c4ccccc34)n2)c(OC)cc1N(C)CCN(C)C	–	human, fasted	oral, 80 mg single dose, arithmetic mean	888
O=C1Nc2ccc(Cl)cc2[C@@](C#CC2CC2)(C(F)(F)F)O1	–	healthy human, serum	oral, 400 mg single dose	6360 ± 2960
CN(C)[C@@H](CCOc1cccc2ccccc12)c1ccccc1	–	healthy male humans, plasma	oral, 60 mg, added: udenafil 200 mg	920 ± 307
C[C@@H](Nc1cc(F)cc(F)c1)c1cc(C(=O)N(C)C)cc2c(=O)cc(N3CCOCC3)oc12	–	human, plasma	oral, single dose, geometric mean	126 to 372
O=C(Nc1nc2cccc(-c3ccc(CN4CCS(=O)(=O)CC4)cc3)n2n1)C1CC1	–	human male	oral, 100 mg twice daily, steady state, mean	352
C#Cc1cccc(Nc2ncnc3cc(OCCOC)c(OCCOC)cc23)c1	–	human, plasma	oral, day 29, added: dovitinib	300 ± 180
C=C(C)[C@@H]1CC[C@]2(NCCN3CCS(=O)(=O)CC3)CC[C@]3(C)[C@H](CC[C@@H]4[C@@]5(C)CC=C(C6=CC[C@@](CF)(C(=O)O)CC6)C(C)(C)[C@@H]5CC[C@]43C)[C@@H]12	–	human	oral, 100 mg once daily, day 14, multiple ascending dose	1700
